Published values gathered from unrelated publications.
Parts stem from different laboratories: compare values within a part only.
UniProt Q15759, sequence (whole entry, looked up): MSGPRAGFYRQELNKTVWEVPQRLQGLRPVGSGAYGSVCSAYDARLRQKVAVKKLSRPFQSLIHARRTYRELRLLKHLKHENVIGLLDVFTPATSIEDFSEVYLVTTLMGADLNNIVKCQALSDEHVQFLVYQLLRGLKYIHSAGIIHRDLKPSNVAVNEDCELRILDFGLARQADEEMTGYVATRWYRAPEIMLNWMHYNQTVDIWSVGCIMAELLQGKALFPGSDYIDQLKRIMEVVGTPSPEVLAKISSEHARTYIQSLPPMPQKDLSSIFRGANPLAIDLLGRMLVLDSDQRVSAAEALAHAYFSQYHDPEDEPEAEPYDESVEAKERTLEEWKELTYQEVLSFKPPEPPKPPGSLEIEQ
UniProt Q13464, sequence (whole entry, looked up): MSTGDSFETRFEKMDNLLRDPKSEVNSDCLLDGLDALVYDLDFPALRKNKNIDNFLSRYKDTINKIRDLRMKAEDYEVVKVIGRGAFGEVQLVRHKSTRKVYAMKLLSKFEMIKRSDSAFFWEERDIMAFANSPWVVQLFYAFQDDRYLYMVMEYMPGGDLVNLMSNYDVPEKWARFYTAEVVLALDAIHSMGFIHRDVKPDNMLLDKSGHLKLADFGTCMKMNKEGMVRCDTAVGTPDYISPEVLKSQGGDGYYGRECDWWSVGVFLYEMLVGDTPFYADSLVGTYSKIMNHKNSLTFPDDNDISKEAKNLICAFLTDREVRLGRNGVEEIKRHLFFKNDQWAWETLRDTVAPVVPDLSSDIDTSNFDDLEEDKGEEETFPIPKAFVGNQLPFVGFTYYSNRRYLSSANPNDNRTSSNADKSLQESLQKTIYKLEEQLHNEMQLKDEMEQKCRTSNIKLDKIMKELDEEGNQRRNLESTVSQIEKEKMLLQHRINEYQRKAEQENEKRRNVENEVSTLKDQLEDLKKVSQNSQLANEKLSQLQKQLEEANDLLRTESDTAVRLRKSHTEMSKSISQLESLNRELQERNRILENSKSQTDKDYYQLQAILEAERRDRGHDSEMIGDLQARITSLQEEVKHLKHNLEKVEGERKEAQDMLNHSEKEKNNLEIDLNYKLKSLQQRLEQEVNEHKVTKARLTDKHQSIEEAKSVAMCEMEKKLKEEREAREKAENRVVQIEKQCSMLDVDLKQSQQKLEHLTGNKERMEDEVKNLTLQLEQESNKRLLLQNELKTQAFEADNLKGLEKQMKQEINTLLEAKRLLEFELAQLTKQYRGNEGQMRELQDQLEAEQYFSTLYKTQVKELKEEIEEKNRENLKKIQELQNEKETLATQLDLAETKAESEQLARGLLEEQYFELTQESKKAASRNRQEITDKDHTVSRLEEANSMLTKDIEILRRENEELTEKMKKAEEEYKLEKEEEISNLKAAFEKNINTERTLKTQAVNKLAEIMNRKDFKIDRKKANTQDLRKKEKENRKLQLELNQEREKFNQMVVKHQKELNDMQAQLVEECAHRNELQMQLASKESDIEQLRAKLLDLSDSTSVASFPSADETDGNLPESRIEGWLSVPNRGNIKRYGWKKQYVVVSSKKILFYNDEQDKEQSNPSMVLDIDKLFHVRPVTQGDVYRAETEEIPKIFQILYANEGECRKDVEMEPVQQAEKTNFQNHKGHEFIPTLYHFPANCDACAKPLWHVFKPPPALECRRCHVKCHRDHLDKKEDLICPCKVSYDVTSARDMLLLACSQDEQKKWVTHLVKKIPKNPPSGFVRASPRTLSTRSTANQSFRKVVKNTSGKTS
UniProt Q8N4C8, sequence (whole entry, looked up): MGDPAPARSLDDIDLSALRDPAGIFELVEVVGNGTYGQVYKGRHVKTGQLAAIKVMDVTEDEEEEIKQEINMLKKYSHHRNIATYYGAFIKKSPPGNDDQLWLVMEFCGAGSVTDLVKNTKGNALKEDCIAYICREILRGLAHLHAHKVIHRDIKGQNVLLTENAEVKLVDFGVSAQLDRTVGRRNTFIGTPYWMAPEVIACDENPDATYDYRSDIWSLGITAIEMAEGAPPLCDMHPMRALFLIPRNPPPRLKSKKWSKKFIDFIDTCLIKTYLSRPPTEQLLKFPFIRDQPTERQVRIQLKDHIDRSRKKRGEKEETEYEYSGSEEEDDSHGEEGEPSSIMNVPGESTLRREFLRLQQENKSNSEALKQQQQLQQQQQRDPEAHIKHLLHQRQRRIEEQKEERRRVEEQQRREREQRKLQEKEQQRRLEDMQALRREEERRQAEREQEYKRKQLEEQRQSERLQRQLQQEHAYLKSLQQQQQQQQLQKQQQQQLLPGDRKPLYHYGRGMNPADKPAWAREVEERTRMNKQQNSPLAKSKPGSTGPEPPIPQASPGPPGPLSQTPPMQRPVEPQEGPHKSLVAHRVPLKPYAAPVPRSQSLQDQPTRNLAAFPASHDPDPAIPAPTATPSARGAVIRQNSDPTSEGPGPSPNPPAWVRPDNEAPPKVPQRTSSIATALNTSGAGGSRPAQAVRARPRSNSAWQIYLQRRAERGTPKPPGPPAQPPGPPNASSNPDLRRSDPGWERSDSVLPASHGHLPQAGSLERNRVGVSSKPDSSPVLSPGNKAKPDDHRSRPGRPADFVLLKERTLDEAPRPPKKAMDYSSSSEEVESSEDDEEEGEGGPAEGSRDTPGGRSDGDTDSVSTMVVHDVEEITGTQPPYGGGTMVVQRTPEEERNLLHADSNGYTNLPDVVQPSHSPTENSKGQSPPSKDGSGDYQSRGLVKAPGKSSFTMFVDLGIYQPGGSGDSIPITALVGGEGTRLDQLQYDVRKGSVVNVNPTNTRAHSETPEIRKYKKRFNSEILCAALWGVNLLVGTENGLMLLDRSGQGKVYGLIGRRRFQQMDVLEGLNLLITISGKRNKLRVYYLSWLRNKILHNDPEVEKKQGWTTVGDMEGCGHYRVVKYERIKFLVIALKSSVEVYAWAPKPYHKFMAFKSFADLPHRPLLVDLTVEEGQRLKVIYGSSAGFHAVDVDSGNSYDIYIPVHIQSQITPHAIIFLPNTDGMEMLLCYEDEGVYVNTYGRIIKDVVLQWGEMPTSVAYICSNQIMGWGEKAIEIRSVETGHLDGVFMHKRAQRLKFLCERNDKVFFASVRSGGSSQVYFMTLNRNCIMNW
UniProt O75676, sequence (whole entry, looked up): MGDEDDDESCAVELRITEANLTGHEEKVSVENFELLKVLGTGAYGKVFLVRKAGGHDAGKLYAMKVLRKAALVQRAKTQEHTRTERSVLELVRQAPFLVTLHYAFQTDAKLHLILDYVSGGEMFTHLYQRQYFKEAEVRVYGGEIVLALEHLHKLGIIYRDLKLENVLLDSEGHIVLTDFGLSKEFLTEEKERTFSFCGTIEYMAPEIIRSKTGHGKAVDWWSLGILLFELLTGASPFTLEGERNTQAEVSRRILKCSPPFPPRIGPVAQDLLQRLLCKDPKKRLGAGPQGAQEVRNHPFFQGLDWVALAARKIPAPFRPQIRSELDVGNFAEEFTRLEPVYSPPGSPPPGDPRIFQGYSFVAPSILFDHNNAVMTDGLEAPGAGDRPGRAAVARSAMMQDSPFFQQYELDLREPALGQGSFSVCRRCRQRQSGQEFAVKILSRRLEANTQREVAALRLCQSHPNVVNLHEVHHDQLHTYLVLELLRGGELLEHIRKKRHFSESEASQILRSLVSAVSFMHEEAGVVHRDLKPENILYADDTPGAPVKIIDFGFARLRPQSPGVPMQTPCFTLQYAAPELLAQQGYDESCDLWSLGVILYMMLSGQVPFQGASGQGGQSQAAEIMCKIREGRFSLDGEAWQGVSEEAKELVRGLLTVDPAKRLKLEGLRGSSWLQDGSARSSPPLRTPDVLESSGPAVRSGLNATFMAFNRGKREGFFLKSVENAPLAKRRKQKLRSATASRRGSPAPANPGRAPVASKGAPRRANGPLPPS
UniProt Q9UL54, sequence (whole entry, looked up): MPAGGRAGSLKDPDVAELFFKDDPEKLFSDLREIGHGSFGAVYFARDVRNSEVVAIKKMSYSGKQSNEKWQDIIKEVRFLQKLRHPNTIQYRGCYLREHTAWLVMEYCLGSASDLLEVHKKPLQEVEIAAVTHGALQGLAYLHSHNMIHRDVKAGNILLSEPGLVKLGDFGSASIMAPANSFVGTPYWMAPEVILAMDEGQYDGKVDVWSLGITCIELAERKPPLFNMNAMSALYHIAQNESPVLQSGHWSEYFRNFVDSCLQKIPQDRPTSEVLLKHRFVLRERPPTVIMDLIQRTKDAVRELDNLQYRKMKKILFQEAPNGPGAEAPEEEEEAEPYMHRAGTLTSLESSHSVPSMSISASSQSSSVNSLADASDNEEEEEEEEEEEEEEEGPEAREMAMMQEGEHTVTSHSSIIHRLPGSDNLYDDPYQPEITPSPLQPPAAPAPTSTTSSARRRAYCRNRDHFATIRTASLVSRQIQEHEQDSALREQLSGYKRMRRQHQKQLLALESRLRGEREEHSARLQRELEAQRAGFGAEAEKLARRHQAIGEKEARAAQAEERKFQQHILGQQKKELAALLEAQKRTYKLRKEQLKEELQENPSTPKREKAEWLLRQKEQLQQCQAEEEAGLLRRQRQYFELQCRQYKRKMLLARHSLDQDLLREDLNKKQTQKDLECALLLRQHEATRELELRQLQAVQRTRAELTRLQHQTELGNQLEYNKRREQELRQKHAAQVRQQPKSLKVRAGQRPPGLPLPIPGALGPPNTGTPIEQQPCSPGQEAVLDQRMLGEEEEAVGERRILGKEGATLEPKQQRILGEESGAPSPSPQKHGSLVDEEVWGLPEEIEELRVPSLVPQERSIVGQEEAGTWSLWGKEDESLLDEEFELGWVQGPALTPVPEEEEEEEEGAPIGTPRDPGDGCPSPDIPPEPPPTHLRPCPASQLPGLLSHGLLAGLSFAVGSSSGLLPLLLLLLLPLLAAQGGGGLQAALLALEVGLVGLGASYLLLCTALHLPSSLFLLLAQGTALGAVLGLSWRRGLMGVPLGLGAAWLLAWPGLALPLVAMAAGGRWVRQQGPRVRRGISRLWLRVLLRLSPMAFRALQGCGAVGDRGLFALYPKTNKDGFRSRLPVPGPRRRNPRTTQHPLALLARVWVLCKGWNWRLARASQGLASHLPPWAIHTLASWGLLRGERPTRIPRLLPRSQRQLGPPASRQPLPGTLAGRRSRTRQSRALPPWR

Set 1
SMILES: Nc1c(C(=O)NCc2ccc(C(=O)NCCCC3CCCCC3)cc2)cnn1-c1ccccc1
Observed: cell-free assay
Technique: competition with immobilised ligand
Concentration: 0.1 µM
target	remaining binding [%]
SIK3 (Homo sapiens, UniProt Q9Y2K2)	94
PDGFRB (Homo sapiens, UniProt P09619)	100
WNK2 (Homo sapiens, UniProt Q9Y3S1)	100
TAOK2 (Homo sapiens, UniProt Q9UL54)	100
FLT3 (Homo sapiens, UniProt P36888, R834Q)	100
EGFR (Homo sapiens, UniProt P00533, L858R/T790M)	96

Set 2
Target: RNA binding protein fox-1 homolog 2, RRM domain, GST-SBP tag (RBFOX2, Homo sapiens, UniProt O43251-10, residues 100-194)
Technique: RNA Bind-n-Seq
Molecule type: RNA
Medium: in vitro
Concentration: 365 nM
Notes: natural RNA segment, single round, ends assumed
Baseline: no-protein control
Reading: higher = stronger binding
Constant ends, left off below: GGGAGUUCUACAGUCCGACGAUC … UGGAAUUCUCGGGUGCCAA
Target sequence (chain): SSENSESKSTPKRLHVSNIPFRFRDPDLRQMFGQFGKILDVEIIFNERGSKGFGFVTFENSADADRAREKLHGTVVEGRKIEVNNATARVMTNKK
Sequence	RBNS enrichment (R)
UUUUCUUUUGUUUUUUGAAGUGUUGGGGUUUGGUUUUGUUUUUUGAGUCUUUUUUUUUUAAGUGAAAUUUAUUGAGGAAAAAUAUGUGAAGGACCUUCACUCUAAGAUGU	0.995
UGCUGGGGACAUUCCAGGCAGAUGAGCAGCCAUGCCCCAUAACGGCGUGCCCACAGUGGCCGGGCCAUGGCUUAGGCUUCCCUCAUGGUCACUUUGCCCAUUACGUCAGA	0.189
CUGUCUGCACAUUUGGGGGUCUCUAUAUUUCUGAAGAGGUAAGCUGAUGAAAAUAAAUAGAGUGUAAAUUCUUUUUAAUGCUUUAGUGAUUAAAUGUUUUAGUAUUUUGA	1.93
UCUGGAAGAACAGCCAGCUUGGAAGUUUUACAGCAAUAAUGUUGCAGUGGAAUAUUAUUUGUAGUUAAGGUCAUCCUCCUCCCCUUUCUGUUUUUUUAAAUCAAGAACUA	0.345
GACGGUCUUGCUAAGUAUAUGACUGGGAGAGUUUGGUCAUUUUUGUGUACCCUAUGGUGGGAAUGUGGGGUUGCCUUUCAAAAGCCUUCAGGAUGGCAACAGAUUGGAUG	1.2
UUUUUCCUUUGGCUGCCUUUUGUUUGUUUGUUUGUUUGUUGUUCUUGUGGGGAGGGCUCAGGAAUGAUUUAACCCCCCCUAAGAUUAUGGUUGGGUCAGUACAGAUUCCA	52.3
GUUUGGACCUCUAGGGAGGAGGGUUUUGGUCAUACUCUCCUUAUCCUCGUGCACAGAAAUGCUCAGGGUCCCCAUGUGCCUGUUGUUCAGCCCUCUCUCUUGUUCCCUUU	0.998
ACCAAGUGGCAGACCUGUGGGCUUCAGCCUCGGGGCCGGGGCAUGCCUGCCACCCCCUGACAAAAACAGGUUCCACAGUGCUACCCUUGCUUCCUGCCCCUUGAGGUGGG	0.289

Set 3
Compound: CC(C)c1nn(-c2c(Cl)cccc2Cl)c2nc(Cc3ccc(OCCO)cc3)[nH]c(=O)c12
Observed: enzyme activity
Action: inhibitor
Concentration: 0.5 µM
Baseline: control
target	remaining activity
Cyclin-dependent kinase 1, with cyclin A (CDK1, Homo sapiens, UniProt P06493)	7.71%
PRKG2 (Homo sapiens, UniProt Q13237)	61.6%
MARK2 (Homo sapiens, UniProt Q7KZI7)	88%
ROCK1 (Homo sapiens, UniProt Q13464)	101%
CDC42BPB (Homo sapiens, UniProt Q9Y5S2)	105%
NEK3 (Homo sapiens, UniProt P51956)	87.3%
RPS6KA4 (Homo sapiens, UniProt O75676)	95.3%
CLK3 (Homo sapiens, UniProt P49761)	91.3%
MAP2K1 (Homo sapiens, UniProt Q02750)	99.7%
MAPK11 (Homo sapiens, UniProt Q15759)	81.8%
MINK1 (Homo sapiens, UniProt Q8N4C8)	97.1%
PAK3 (Homo sapiens, UniProt O75914)	94.8%
DDR2 (Homo sapiens, UniProt Q16832)	96.3%

Mixed results
Substance	target	assay	test system	conditions	how to read	quantity	result
PhoQ, residues 284 288 289 292 302 303 SLANKL	PhoP, residues 12 14 15 18 19 NQFFI (Escherichia coli, UniProt P23836)	Sort-seq, measured: YFP reporter	E. coli	PhoQ-PhoP variant library, added: 10 µM Mg2+	baseline: high Mg2+ state, higher = stronger signaling	fold induction	18.9

For quick reference, copied from above (set 2):
Sequence	RBNS enrichment (R)
UUUUCUUUUGUUUUUUGAAGUGUUGGGGUUUGGUUUUGUUUUUUGAGUCUUUUUUUUUUAAGUGAAAUUUAUUGAGGAAAAAUAUGUGAAGGACCUUCACUCUAAGAUGU	0.995
UGCUGGGGACAUUCCAGGCAGAUGAGCAGCCAUGCCCCAUAACGGCGUGCCCACAGUGGCCGGGCCAUGGCUUAGGCUUCCCUCAUGGUCACUUUGCCCAUUACGUCAGA	0.189
CUGUCUGCACAUUUGGGGGUCUCUAUAUUUCUGAAGAGGUAAGCUGAUGAAAAUAAAUAGAGUGUAAAUUCUUUUUAAUGCUUUAGUGAUUAAAUGUUUUAGUAUUUUGA	1.93
UCUGGAAGAACAGCCAGCUUGGAAGUUUUACAGCAAUAAUGUUGCAGUGGAAUAUUAUUUGUAGUUAAGGUCAUCCUCCUCCCCUUUCUGUUUUUUUAAAUCAAGAACUA	0.345
